Results from different studies.
± marks the error that the study gave.
Target: ATP-dependent translocase ABCB1 (ABCB1, Homo sapiens, UniProt P08183)
Chain of UniProt P08183 (whole entry, looked up): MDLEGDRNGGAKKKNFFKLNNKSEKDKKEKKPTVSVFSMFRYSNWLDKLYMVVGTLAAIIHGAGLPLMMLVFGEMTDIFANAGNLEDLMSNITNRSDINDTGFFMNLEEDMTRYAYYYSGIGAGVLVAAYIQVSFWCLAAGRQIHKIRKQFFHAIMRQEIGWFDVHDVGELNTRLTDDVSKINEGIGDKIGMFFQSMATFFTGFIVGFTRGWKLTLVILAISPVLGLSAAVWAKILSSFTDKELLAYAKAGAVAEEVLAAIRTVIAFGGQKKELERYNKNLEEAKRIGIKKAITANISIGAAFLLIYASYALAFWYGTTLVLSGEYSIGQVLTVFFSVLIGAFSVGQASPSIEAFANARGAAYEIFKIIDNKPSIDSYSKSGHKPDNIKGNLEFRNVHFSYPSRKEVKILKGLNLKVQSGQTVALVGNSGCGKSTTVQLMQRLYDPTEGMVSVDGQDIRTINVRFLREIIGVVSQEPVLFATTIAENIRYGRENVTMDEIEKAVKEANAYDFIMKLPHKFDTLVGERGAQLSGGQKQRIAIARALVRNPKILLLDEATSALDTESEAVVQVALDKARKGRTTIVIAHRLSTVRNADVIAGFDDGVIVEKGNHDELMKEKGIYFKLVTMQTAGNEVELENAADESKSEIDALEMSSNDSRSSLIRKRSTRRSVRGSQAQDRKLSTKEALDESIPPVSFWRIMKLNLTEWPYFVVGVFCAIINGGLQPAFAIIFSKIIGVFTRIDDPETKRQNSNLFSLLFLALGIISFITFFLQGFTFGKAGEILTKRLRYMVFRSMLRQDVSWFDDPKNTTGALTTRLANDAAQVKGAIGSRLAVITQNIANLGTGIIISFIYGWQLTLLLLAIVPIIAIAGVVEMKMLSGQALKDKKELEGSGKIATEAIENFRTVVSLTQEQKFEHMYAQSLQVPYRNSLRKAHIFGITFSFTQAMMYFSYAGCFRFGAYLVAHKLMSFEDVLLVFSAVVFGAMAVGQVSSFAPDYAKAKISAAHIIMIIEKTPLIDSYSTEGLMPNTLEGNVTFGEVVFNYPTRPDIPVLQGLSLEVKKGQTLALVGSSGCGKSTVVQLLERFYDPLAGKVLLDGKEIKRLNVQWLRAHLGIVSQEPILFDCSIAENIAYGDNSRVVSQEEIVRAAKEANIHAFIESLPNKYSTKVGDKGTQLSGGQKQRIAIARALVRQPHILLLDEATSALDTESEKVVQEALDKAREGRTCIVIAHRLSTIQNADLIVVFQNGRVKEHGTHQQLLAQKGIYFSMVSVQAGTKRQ

Compound = CNc1nc(N)nc2c1ncn2[C@@H]1O[C@H](CO[P@](=O)(O)N[C@@H](C)C(=O)O)[C@@H](O)[C@@]1(C)F; test = bidirectional transport; system = LLC-PK1, human MDR1, transfected with; setting = 10 µM, with: zosuquidar 1 µM; measurement = efflux ratio; result = 1.12 ± 0.24
Compound = C=CC(=O)N1CC2C(=O)N(CCN(C)C)c3c(c4cc(Cl)c(-c5c(O)cccc5F)nc4n(-c4c(C)ccnc4C(C)C)c3=O)N2CC1C (stereo not shown); system = MDCK-MDR1; measurement = Papp B-A; result = 7.2 ×10⁻⁶ cm/s
Compound = C[C@@]1(F)[C@H](O)[C@@H](CO)O[C@H]1n1cnc2c(=O)[nH]c(N)nc21; test = bidirectional transport; system = LLC-PK1, human MDR1, transfected with; setting = 10 µM; measurement = Papp A to B; result = 14.7 ± 1.1 ×10⁻⁶ cm/s
Compound = Cc1cc(C(=O)N[C@@H](CC(=O)NC(C)(C)C)C(=O)NCCNC(=O)c2cccc(-n3cccn3)c2)no1; system = ABCB1-expressing cell monolayer; setting = 10 µM, apical to basolateral; measurement = apparent permeability; result = 0.1 ×10⁻⁶ cm/s
Compound = C/C(N)=N/C(=N\S(=O)(=O)c1ccc(C(F)(F)F)cc1)N1C[C@H](c2ccccc2)C(c2ccc(Cl)cc2)=N1; system = MDCK-MDR1 monolayers; setting = 5 µM, 120 min, pH 7.4, with: valspodar 1 µM; measurement = efflux ratio; result = 0.49
Compound = CNc1nc(N)nc2c1ncn2[C@@H]1O[C@H](CO)[C@@H](O)[C@@]1(C)F; test = bidirectional transport; system = LLC-PK1, human MDR1, transfected with; setting = 10 µM, with: zosuquidar 1 µM; measurement = efflux ratio; result = 1.24 ± 0.15
Compound = Cc1cc(C(=O)N[C@@H](CC(=O)NC(C)(C)C)C(=O)NCCNC(=O)c2cc(-c3ccccc3)ccn2)no1; system = ABCB1-expressing cell monolayer; setting = 10 µM; how to read = baseline: B-A over A-B; measurement = efflux ratio; result = 58
Compound = N[C@H]1[C@H](O[C@H]2[C@H](O)[C@@H](N)[C@H](O[C@H]3[C@H](O)[C@@H](N)[C@H](O[C@H]4[C@H](O)[C@@H](N)C(O)O[C@@H]4CO)O[C@@H]3CO)O[C@@H]2CO)O[C@H](CO)[C@@H](O)[C@@H]1O (stereo partly shown); test = surface plasmon resonance; measurement = Kd; result = 1290 µM
Compound = Cc1cc(C(=O)N[C@@H](CC(=O)NC(C)(C)C)C(=O)NCCNC(=O)c2cccc(-c3cc[nH]n3)c2)no1; system = ABCB1-expressing cell monolayer; setting = 10 µM; how to read = baseline: B-A over A-B; measurement = efflux ratio; result = 8.7
Compound = CC(C)(O)Cn1nc(-c2ccccc2)c2c(Cl)c(-c3ccccc3)nnc21; system = MDCK-MDR1 and wild-type MDCK; setting = 10 µM, 1 h, pH 7.4; measurement = effective efflux ratio; result = 1

Excerpt of the above:
Compound = Cc1cc(C(=O)N[C@@H](CC(=O)NC(C)(C)C)C(=O)NCCNC(=O)c2cccc(-n3cccn3)c2)no1; system = ABCB1-expressing cell monolayer; setting = 10 µM, apical to basolateral; measurement = apparent permeability; result = 0.1 ×10⁻⁶ cm/s
